Assay results gathered from unrelated publications.
A part holds a random share of what one study measured.

Study 1 — method: protein-binding microarray; molecule type: double-stranded DNA, one strand shown; medium: in vitro; tested at: 0.8 µM; notes: whole 60-bp probe, no competitor; reading: higher = stronger binding; shared flanks, not repeated: … GTCTTGATTCGCTTGACGCTGCTG
Target: Centromere-binding protein 1, full length, N-terminal tag (CBF1, Saccharomyces cerevisiae, UniProt P17106, residues 1-351)
Sequence of UniProt P17106 (whole entry, looked up): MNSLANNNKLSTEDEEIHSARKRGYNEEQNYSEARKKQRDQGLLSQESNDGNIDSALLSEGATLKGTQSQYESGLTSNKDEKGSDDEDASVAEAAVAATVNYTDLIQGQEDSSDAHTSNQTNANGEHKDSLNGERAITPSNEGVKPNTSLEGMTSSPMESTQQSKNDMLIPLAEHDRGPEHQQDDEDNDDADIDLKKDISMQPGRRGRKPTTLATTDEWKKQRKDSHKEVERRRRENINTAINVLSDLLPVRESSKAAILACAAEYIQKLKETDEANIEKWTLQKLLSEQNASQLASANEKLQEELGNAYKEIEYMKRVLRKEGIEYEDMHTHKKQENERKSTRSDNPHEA
Strand | fluorescence intensity
CTATTTGTTTAAAATTTCACCAGATCTGCTTGATTC | 491 a.u.
CTATTTAGCGCGCGTGATATGGACATAGATGCATTC | 1990 a.u.
GAATCCTCGGAGAAACACGGGAATATTTGAAACTAG | 522 a.u.
GAATGTCTTTAAGTCCATCACATGGTGTTTTATTAG | 2700 a.u.
GAACGCAAACGAACACACGTTTTGTTCACTCCTTAG | 527 a.u.
CTAGTCAGTATTTATAGCGTGATAGTTCATTACTTC | 622 a.u.
GAATAATGGTTTATGCACGTGAATATCACGTGATAG | 27300 a.u.
GAAACGACACCATGTCTGATGCATTTTAGAAACTAG | 521 a.u.
CTACGATGTTCAAACAACGTGTTATCAGAGAAATTC | 610 a.u.

Study 2 — method: RNA Bind-n-Seq; molecule type: RNA; medium: in vitro; tested at: 1 µM; notes: whole 134-nt RNA, ends assumed; added: 150 mM KCl; reference: input library; reading: higher = stronger binding
Target: Ras GTPase-activating protein-binding protein 1, RRM domain (G3BP1, Homo sapiens, UniProt Q13283)
Sequence of UniProt Q13283 (whole entry, looked up): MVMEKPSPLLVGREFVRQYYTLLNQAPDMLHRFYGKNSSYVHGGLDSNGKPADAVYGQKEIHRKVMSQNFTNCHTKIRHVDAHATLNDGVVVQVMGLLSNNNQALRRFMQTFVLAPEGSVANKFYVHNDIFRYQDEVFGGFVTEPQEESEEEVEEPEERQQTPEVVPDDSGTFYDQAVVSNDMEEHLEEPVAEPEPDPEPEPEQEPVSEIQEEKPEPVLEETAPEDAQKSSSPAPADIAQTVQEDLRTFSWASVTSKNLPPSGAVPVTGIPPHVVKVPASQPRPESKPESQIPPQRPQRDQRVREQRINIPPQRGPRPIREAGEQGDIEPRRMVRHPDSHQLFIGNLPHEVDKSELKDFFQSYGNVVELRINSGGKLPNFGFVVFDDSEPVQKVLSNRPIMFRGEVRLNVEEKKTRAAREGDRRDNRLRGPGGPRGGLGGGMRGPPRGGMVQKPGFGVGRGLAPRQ
Strand | log2 enrichment
GGGAGUUCUACAGUCCGACGAUCUCCUGUGCUACACAUCGUAUGUACCGAAUCGGGGAAAAAAAGGGGUUUGGGGUUUGGGGAAAGUAUUAUGUUACGCCGUUCGGAUCUGCAUGGAAUUCUCGGGUGUCAAGG | 1.3
GGGAGUUCUACAGUCCGACGAUCGUCCUGUGCUACACAUCGUAUGUACCGAAUCGGGUUUUUUGGUUUUUUGGUUUUUUGGGAAAGUAUUAUGUUACGCCGUUCGGAUCUGCAUGGAAUUCUCGGGUGUCAAGG | -0.176
GGGAGUUCUACAGUCCGACGAUCCCUGUGCUACACAUCGUAUGUACCGAAUCGGUUUUUUGGGGUUUUUUGGGGUUUUUUGGGAAAGUAUUAUGUUACGCCGUUCGGAUCUGCUGGAAUUCUCGGGUGUCAAGG | -0.312
GGGAGUUCUACAGUCCGACGAUCUUUCUAGGGAAGGUGCUUCUGGAAAAGUUGCUGAGGUCUUGUCCUAAGGUGAAUUCAGUAUAUGUUUUGGUGAGGCAGAAAGCUGGACAGUGGAAUUCUCGGGUGUCAAGG | -0.252

Study 3 — method: protein-binding microarray; molecule type: double-stranded DNA, one strand shown; medium: in vitro; tested at: 2200 nM top; notes: 60-bp whole probe; added: salmon DNA 0.4 mg/ml; reference: random background probes; reading: higher = stronger binding; shared flanks, not repeated: GCCTAGCAC … GTCTTGATTCGCTTGACGCTGCTG
Target: Interferon regulatory factor 7, full length, phosphomimetic (IRF7, Homo sapiens, UniProt Q92985, residues 1-503, S471D/S472D/S475D/S476D/S477D/S483D/S484D/S487D)
Sequence of UniProt Q92985 (whole entry, unmodified, looked up): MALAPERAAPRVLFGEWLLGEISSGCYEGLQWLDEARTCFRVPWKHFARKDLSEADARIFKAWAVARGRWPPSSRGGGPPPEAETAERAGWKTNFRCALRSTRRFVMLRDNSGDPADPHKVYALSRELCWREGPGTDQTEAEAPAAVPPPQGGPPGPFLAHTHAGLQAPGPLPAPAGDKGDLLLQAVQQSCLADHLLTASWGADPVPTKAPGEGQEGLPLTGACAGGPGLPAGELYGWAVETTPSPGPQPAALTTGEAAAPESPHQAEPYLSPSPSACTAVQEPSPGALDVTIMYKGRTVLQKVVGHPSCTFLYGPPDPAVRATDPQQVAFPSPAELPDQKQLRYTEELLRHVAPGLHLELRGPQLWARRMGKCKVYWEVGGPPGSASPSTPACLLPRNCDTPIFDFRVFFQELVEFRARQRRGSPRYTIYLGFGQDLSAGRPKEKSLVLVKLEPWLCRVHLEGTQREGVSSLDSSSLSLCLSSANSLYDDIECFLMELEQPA
Strand | fitted relative affinity [z-score]
TTAGATCTCCTTTTCCTTTAGTGCTAG | 2.15
TCAAGTCTGGGCTACAACTTGGTGCTA | -0.413
TTAGGACTGGGTTTCGGTTTGTGCTAG | 8.96
GACGGCCTCGGACTGGGGACGTGCTAG | -0.882
TTAGGTTTCGACTATAGGTTAGTGCTA | 2.08
GACGGTATCCCTCTCCTGACGTGCTAG | 0.785
GTATGACTCTGCCTCTAACTGTGCTAG | 0.992
TTAGATATCTGGTTTCGATTAGTGCTA | 4.21

Mixed results
Substance | target | assay | test system | conditions | how to read | measurement | result
PhoQ, residues 284 288 289 292 302 303 DDMDFR | PhoP, residues 12 14 15 18 19 SYFRT (Escherichia coli, UniProt P23836) | Sort-seq, item: YFP reporter | E. coli | PhoQ-PhoP variant library, added: 10 µM Mg2+ | reference: high Mg2+ state, higher = stronger signaling | fold induction | 0.736

A few entries again (study 1):
Strand | fluorescence intensity
GAATGTCTTTAAGTCCATCACATGGTGTTTTATTAG | 2700 a.u.
GAACGCAAACGAACACACGTTTTGTTCACTCCTTAG | 527 a.u.
CTAGTCAGTATTTATAGCGTGATAGTTCATTACTTC | 622 a.u.
